Measured values pooled from the literature.
Parts stem from different laboratories: compare values within a part only.

Block 1 — method: protein binding microarray; form: double-stranded DNA, one strand shown; medium: in vitro; concentration: not given; reference: not given; direction: higher = stronger binding; quantity: E-score
Target: Histone acetyltransferase KAT6A, winged helix 1, GST fusion (KAT6A, Homo sapiens, UniProt Q92794, residues 1-85)
Setting: 8-mer, flanks averaged, mean of 2 arrays, mostly near background
Residues (chain): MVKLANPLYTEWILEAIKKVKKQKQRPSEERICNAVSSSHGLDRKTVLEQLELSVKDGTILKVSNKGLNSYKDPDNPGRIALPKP
Strand = AGATCTAG; value = -0.174
Strand = CGTACGGA; value = 0.286
Strand = CAGGTCCA; value = -0.174
Strand = AGCGTCCC; value = 0.0636
Strand = GCGCGCCC; value = 0.426
Strand = AGCCTCAG; value = 0.00307

Block 2 — method: universal PBM; form: double-stranded DNA, one strand shown; medium: in vitro; concentration: 600 nM; direction: higher = stronger binding; quantity: E-score
Target: Sal-like protein 4, full length isoform A (SALL4, Homo sapiens, UniProt Q9UJQ4, residues 1-1053)
Sequence of UniProt Q9UJQ4 (whole entry, looked up): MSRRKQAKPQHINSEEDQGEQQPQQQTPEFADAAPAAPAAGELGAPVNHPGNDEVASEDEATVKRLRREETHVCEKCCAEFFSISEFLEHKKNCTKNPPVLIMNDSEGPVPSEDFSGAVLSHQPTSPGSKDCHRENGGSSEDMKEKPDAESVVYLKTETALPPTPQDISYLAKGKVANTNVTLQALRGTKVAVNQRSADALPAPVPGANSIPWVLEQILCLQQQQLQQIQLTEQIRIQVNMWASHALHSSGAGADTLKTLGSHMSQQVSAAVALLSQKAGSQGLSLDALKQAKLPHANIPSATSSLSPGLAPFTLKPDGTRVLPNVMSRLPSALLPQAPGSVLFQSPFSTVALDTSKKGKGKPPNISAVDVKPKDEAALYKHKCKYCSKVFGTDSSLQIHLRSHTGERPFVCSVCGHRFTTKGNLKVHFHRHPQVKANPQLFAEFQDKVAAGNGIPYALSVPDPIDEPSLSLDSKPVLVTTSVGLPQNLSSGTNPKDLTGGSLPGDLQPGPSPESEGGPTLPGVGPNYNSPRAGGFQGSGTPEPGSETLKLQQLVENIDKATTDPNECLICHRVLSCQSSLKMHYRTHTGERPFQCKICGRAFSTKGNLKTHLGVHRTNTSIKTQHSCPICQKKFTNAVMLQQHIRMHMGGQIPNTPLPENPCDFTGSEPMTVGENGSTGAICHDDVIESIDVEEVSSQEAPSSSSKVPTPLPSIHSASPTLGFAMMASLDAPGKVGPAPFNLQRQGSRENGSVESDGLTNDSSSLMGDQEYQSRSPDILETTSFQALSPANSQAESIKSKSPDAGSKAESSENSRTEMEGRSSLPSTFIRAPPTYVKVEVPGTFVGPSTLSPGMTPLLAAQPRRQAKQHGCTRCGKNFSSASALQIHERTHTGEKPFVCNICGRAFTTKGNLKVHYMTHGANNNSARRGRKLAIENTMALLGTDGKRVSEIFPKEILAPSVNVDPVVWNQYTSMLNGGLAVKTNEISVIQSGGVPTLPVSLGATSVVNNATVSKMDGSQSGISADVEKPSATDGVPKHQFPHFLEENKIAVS
Setting: 8-mer, flanks averaged, mean of replicates
Strand = CACACACA; value = -0.0173
Strand = GCTGAGGA; value = -0.172
Strand = TCATGAAA; value = 0.147
Strand = CCCGACGC; value = -0.404
Strand = CGCCTAAA; value = -0.0855
Strand = CAGCTTAA; value = 0.0242

Block 3 — method: protein-binding microarray; form: double-stranded DNA, one strand shown; medium: in vitro; concentration: 2540 nM top; setting: 60-bp whole probe; added: salmon DNA 0.4 mg/ml; reference: random background probes; direction: higher = stronger binding; quantity: fitted relative affinity
Target: Interferon regulatory factor 3, full length, phosphomimetic (IRF3, Homo sapiens, UniProt Q14653, residues 1-427, S386D/S396D/S398D/S402D/T404D/S405D)
Sequence of UniProt Q14653 (whole entry, unmodified, looked up): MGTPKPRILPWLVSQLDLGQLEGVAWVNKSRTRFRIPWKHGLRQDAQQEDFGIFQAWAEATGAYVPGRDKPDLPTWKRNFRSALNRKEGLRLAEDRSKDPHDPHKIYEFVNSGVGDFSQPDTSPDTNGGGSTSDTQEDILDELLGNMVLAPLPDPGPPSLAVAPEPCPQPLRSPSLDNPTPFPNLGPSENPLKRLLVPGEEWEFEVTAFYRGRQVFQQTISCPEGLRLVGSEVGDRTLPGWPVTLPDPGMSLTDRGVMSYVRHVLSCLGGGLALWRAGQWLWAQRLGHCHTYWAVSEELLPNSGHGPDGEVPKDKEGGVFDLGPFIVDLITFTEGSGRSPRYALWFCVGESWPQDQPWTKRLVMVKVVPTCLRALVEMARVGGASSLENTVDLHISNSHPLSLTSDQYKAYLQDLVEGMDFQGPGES
All sequences stand within: GCCTAGCAC … GTGCTAGGTCTTGATTCGCTTGACGCTGCTG
Strand = TATGTTCCTTTAGCACTTTG; value = 1.82 z-score
Strand = GACGGACTGCATCTCCTGAC; value = -0.372 z-score
Strand = TTAGGTATCGCACTGGGTTA; value = 0.585 z-score
Strand = GACGAACTGAGTTTCGAGAT; value = 1.41 z-score
Strand = AGATGAAAAGTGAAGCCTAG; value = -0.1 z-score

Single results of other studies
Molecule = PhoQ, residues 284 288 289 292 302 303 SASVAL; target = PhoP, residues 12 14 15 18 19 NHFIF (Escherichia coli, UniProt P23836); assay = Sort-seq, measured: YFP reporter; system = E. coli; conditions = PhoQ-PhoP variant library, added: 10 µM Mg2+; how to read = reference: high Mg2+ state, higher = stronger signaling; quantity = fold induction; value = 14.3

A few entries again (block 3):
Strand = GACGGACTGCATCTCCTGAC; value = -0.372 z-score
Strand = GACGAACTGAGTTTCGAGAT; value = 1.41 z-score
